Earlier results that unrelated publications cite.
Each numbered part shows a few of the values that one paper quotes. Numbers after ± are the reported error.
UniProt Q9ZMY2, sequence (whole entry, looked up): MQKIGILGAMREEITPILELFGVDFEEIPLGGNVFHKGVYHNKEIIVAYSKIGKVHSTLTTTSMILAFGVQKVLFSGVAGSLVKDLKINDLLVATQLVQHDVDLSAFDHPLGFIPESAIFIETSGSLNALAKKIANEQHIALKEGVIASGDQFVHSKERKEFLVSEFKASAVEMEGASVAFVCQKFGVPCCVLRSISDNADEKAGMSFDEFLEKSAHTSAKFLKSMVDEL
UniProt P23458, sequence (whole entry, looked up): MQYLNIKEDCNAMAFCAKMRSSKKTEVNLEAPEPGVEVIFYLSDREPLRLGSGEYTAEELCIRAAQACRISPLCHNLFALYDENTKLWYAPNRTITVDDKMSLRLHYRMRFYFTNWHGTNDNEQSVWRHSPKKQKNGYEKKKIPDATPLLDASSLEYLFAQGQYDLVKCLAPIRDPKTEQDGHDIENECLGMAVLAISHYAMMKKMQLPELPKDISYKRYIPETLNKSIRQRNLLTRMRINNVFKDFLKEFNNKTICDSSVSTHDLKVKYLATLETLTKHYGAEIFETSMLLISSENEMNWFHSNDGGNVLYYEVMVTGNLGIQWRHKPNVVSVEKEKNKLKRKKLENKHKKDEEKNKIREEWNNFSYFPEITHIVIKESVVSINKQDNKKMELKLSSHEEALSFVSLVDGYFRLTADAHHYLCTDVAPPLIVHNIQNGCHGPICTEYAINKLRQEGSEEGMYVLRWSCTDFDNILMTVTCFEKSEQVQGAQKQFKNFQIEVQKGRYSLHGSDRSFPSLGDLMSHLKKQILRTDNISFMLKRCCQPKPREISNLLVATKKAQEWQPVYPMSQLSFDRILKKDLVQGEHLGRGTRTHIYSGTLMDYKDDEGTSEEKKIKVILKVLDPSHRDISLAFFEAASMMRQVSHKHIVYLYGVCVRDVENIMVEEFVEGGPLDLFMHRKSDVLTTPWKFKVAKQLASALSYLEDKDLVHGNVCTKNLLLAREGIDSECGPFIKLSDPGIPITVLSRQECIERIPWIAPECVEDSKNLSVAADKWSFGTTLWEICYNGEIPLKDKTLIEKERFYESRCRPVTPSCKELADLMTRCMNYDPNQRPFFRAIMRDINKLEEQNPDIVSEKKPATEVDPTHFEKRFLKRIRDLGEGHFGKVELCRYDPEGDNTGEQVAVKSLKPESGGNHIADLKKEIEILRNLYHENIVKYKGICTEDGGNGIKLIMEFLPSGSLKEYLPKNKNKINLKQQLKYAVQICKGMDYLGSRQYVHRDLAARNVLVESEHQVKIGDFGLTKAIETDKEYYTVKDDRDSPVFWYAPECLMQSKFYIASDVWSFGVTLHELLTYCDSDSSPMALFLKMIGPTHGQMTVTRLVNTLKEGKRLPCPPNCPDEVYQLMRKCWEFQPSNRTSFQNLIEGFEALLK

Study 1
Target: HLA class I histocompatibility antigen, A alpha chain, allele A*80:01 (Homo sapiens, UniProt P04439)
Effect on: peptide-MHC binding
Form: peptide
Sequence | IC50 [µM]
SHDLAPQFL | > 20
SQYDPKELL | > 20
KVIEKMEVL | > 20
YQIEGAWRA | > 20
RTFSILNRK | > 20
ITLFPSYQL | > 20
ETWVETWAF | > 20
GTGDSRLTY | 0.201
LQKIPLQWF | > 20
SMRSRARHI | > 20
PVTPVIPRV | > 20
HAEQGLIQY | > 20
MHGHGKHIL | > 20
MEDCPNEGV | > 20
GVEGIGLQY | 0.339
EGFDPRALI | > 20
NTDAFSREY | 0.568
MGFPSLATK | > 20
YQAENSTAE | > 20
LLDLEGHIL | > 20
FPIPTEVVA | > 20
HHYSQAAVL | > 20
FNCGGEFFY | 0.0528
HLKEKSSLR | > 20
FLRKNQRAL | > 20

Single results of other studies
Structure (SMILES) | tested on | test | test system | conditions | scale | measurement | value
N.N.[Cl][Pt][Cl] |  | measured: total platinum | mouse | intravenous, 2.6 mg Pt/kg |  | clearance | 1.49 mL/min/kg
N.N.[Cl][Pt][Cl] | MCF-10A |  |  |  |  | IC50 | 91 ± 7 µM
Cc1cc2c(C(N)=O)cccc2n1-c1nc2c(c(NCc3ccccc3)n1)COCC2 | p97 (VCP) | inhibitor |  | concentration not given |  | IC50 | 0.011 µM
CSC[C@H]1CN(Cc2c[nH]c3c(N)ncnc23)C[C@@H]1O | Aminodeoxyfutalosine nucleosidase (Helicobacter pylori, UniProt Q9ZMY2) |  |  | initial complex |  | Ki | 0.00019 ± 3e-05 µM
Cc1ncc2n1-c1ccc(Cl)cc1C(c1ccccc1F)=NC2 |  |  | rat |  |  | blood-to-plasma ratio | 0.82
C/C=C1/CN2CC[C@]34C(=C(C(=O)OC)[C@H]1C[C@H]23)Nc1ccccc14 | kappa opioid receptor | cAMP level |  |  |  | IC50 | 0.24 µM
CCCCCCC(C)(C)c1cc(OC)c(C2C=C(CO)C3CC2C3(C)C)c(OC)c1 (centres unmarked) | cannabinoid receptor CB1 | agonist |  |  |  | EC50 | > 1 µM
NC1CCCCC1N.O=C([O-])C(=O)[O-].[Pt+2] (centres unmarked) |  | measured: total platinum | mouse | intravenous, 8.34 mg Pt/kg |  | clearance | 14.4 mL/min/kg
Cc1cc(-c2nccc3c2ccn3CC(=O)Nc2ccc(-c3cnccn3)cn2)ccn1 |  |  | dog |  |  | NOAEL | 30 mg/kg/day
c1ccc(CNc2nc(NCc3ccccc3)c3ccccc3n2)cc1 | p97 (VCP) | inhibitor |  |  |  | Ki | 3.2 µM
[Cl][Cd][Cl] | HepG2 | DNA damage, comet |  |  |  | lowest effective concentration | 2 µM
COc1ccc2c(c1)[C@]13CCCC[C@@H]1[C@H](C2)N(C)CC3 |  |  | rat |  |  | plasma clearance | 107 mL/min/kg
C/C=C1/CN2[C@H]3Cc4c([nH]c5ccccc45)[C@@H]2C[C@@H]1[C@]3(CO)C(=O)OC | mu opioid receptor | cAMP level |  |  |  | IC50 | 3.1 µM
CC(C)C[C@H](NC(=O)CNC(=O)c1cc(Cl)ccc1Cl)B(O)O |  | population PK estimate |  |  |  | absorption lag time | 0.22 h
O=c1c2ccccc2[se]n1-c1ccccc1 | HIV-1 capsid | inhibitor, TR-FRET |  |  |  | IC50 | 0.0461 µM
CCNC(=O)[C@H]1O[C@@H](n2cnc3c(N)ncnc32)[C@H](O)[C@@H]1O | adenosine receptor (bovine), non-selective | binding, radioligand binding |  |  |  | Kd | 0.0077 µM
Nc1ncc(-c2nc(N3CCOCC3)nc(N3CCOCC3)n2)c(C(F)F)n1 | Tyrosine-protein kinase JAK1, JH2 pseudokinase domain (JAK1, Homo sapiens, UniProt P23458) | KinomeScan competition binding |  | 10 µM |  | remaining binding | 0.05%
N.N.[Cl][Pt][Cl] | HepaRG | DNA damage, comet |  |  |  | lowest effective concentration | 2 µM
Cc1o[nH]c(=O)c1CC(N)C(=O)O (centres unmarked) | AMPA | binding, ligand binding |  |  |  | Kd | 0.028 µM
CC(C)C[C@H](CN)CC(=O)O |  |  | human neuropathic pain | dose not given |  | overall response rate | < 50%
N#CCNC(=O)c1ccc(-c2ccnc(Nc3ccc(N4CCOCC4=O)cc3)n2)cc1 |  |  | moderate renal impairment | dose not given |  | AUC(0-inf) increase | 20%
COC1=C[C@]23CCN(C)[C@H](Cc4ccc(OC)c(O)c42)C3=CC1=O | hepatitis B virus | antigen secretion, measured: HBeAg | HepG2.2.15 |  |  | IC50 | 2.81 µM
CCCC(C(=O)c1ccc2c(c1)OCO2)N1CCCC1.Cl (racemic) | dopamine transporter, rat | inhibitor | rat brain tissue |  | relative to: cocaine | relative potency | 50 fold
C=C(CO)C(=O)O[C@H]1CC(=C)[C@@H]2C[C@H](O)C(=C)[C@@H]2[C@H]2OC(=O)C(=C)[C@@H]21 | hepatitis B virus | HBsAg secretion | HepG2.2.15 |  |  | IC50 | 5.3 µM
COCCn1c(C)c(C)sc1=NC(=O)C1C(C)(C)C1(C)C | cannabinoid receptor CB1 | agonist |  |  |  | EC50 | > 1 µM

Some of these lines once more (study 1):
Sequence | IC50 [µM]
GTGDSRLTY | 0.201
LQKIPLQWF | > 20
SMRSRARHI | > 20
